Assay results of several laboratories.
Each numbered part is a random draw from the data of one study; scales do not carry over between parts. Positions count from the first letter of the parent shown.

Set 1 — technique: protein-binding microarray; form: double-stranded DNA, one strand shown; matrix: in vitro; concentration: 250 nM; setting: 60-bp whole probe; added: salmon DNA 0.4 mg/ml; relative to: random background probes; direction: higher = stronger binding; all sequences stand within: GCCTAGCAC … GTCTTGATTCGCTTGACGCTGCTG
Target: Interferon regulatory factor 5, full length, phosphomimetic (IRF5, Homo sapiens, UniProt Q13568-2, residues 1-514, K96S/S451D/S453D/S456D/S462D)
Oligonucleotide | log fluorescence [z-score]
TTAGACATCGGGTATCGATTAGTGCTA | 3.61
TCACATCTGATTTCTCAAACTGTGCTA | 0.798
TCAGCCAGCTCTTTCGTACTGTGCTAG | 1.63
GACGGTTTCATTCTCCTGACGTGCTAG | 2.54
GACGGACTGCTTTTCCTGACGTGCTAG | -0.0924
TTAGGTCTCGGTCTCGGTTCGTGCTAG | 0.582
GACGGGCTGGACTTTCGGGACGTGCTA | 3.53
TTAGGACTGGCCTTTCGGTTAGTGCTA | 5.19
TATGGTATTTTTTTGTAATCGTGCTAG | 0.776

Set 2 — technique: RNA Bind-n-Seq; form: RNA; matrix: in vitro; concentration: 20 nM; setting: 6-mer, flanks averaged, single round; added: 150 mM KCl; relative to: input library; direction: higher = stronger binding
Target: TAR DNA-binding protein 43, full length, His tag (TARDBP, Homo sapiens, UniProt Q13148, residues 1-414)
Oligonucleotide | 6-mer enrichment (R)
UCGAGC | 0.766
GACCGA | 0.879
GGAUCC | 0.889
UUUAGU | 0.658
CAAACA | 0.633
GUCAGC | 0.874
UCCCCC | 0.655
GACUAU | 0.647
AGAAGU | 0.856
UUCCAC | 0.569
UCGCGG | 1.56
AAGUUA | 0.597

Set 3 — target: CCND2, cyclin fold, Cln2 fusion (human); technique: yeast growth competition, sequencing; matrix: yeast; setting: weak parent motif; relative to: not given; direction: higher = stronger binding
Starting sequence: AKAP12 docking peptide (human); GSPLKKLFTSTGL
Variant | normalised enrichment score
L4A | 0.0578
L7A | -0.0887
K5A | -0.164
S10A | 0.07
K6A | -0.026
G12A | -0.251
F8L | -0.788

Single results of other studies
Substance | target | test | system | conditions | how to read | measurement | result
PhoQ, residues 284 288 289 292 302 303 QWGLFV | PhoP, residues 12 14 15 18 19 MHTVL (Escherichia coli, UniProt P23836) | Sort-seq, measured: YFP reporter | E. coli | PhoQ-PhoP variant library, added: 10 µM Mg2+ | relative to: high Mg2+ state, higher = stronger signaling | fold induction | 14.2

Excerpt of the above (set 1):
Oligonucleotide | log fluorescence [z-score]
TTAGACATCGGGTATCGATTAGTGCTA | 3.61
TCACATCTGATTTCTCAAACTGTGCTA | 0.798
TCAGCCAGCTCTTTCGTACTGTGCTAG | 1.63
